Experimental data of several laboratories.
Protocols differ between the studies behind these lines.

| SMILES | test | system | conditions | quantity | result |
| --- | --- | --- | --- | --- | --- |
| COc1ccc([C@@H](O)c2cc(-c3ncnc4cc(N5CCOCC5)ccc34)c(F)cc2Cl)nn1 | measured: Fatigue | locally advanced rectal cancer patients | dose not given, all dose groups, added: capecitabine plus radiotherapy | patients with drug-related AE | 32% |
| Cc1cc(-c2nnc(N)nc2-c2ccc(F)cc2)cc(Cl)n1 | measured: Hyperthyroidism | IO-naive colorectal cancer patients | oral, dose not given, treatment-related, grade 1 | patients with immune-mediated AE | 0% |
| CCOc1c([C@H](C)n2nc(C)c3c(N)ncnc32)cc(Cl)c(F)c1[C@@H]1CNC(=O)C1 | measured: QRS >100 to ≤110 ms | previously treated B-cell malignancy | oral, 15 mg once daily, baseline below thresholds | patients | 0% |
| O=C(Nc1nc2cccc(-c3ccc(CN4CCS(=O)(=O)CC4)cc3)n2n1)C1CC1 |  | rheumatoid arthritis patients | oral, 100 mg twice daily, 4 weeks, regardless of relatedness | patients with administration site disorders | 8.3% |
| C=CC(=O)NC1CCN(c2ncc3ncnc(Nc4ccc(Oc5ccc6c(c5)ncn6C)c(C)c4)c3n2)CC1 |  | male patients | oral, dose not given, treatment-related adverse events | patients with Flatulence | 0% |
| COc1cc2nccc(Oc3ccc(NC(=O)c4cc5c(n(-c6ccccc6)c4=O)CCCC5=O)nc3)c2cc1OC | CTCAE | patients with relapsed/refractory AML | oral, 10 mg once daily | patients with TEAEs grade ≥3 | 85.7% |
| FC(F)(F)c1ccc(CNc2ccc(Cc3c[nH]c4ncc(Cl)cc34)cn2)cn1 | measured: gastroesophageal reflux disease | non-TGCT solid tumour patients | oral, 1000 mg/day, grade 3 or higher | patients with treatment-related adverse event | 0% |
| CC(C)C[C@H](NC(=O)CNC(=O)c1cc(Cl)ccc1Cl)B(O)O | measured: Hypokalaemia, all grades | newly diagnosed multiple myeloma patients | oral, dose not given, maintenance phase, new onset, cycle 17 or later | patients with adverse event | 11% |
| COc1cc(Nc2ncc3c(n2)-c2ccc(Cl)cc2C(c2c(F)cccc2OC)=NC3)ccc1C(=O)O | measured: Alopecia, all grades | cancer patients, phase 1/2 | oral, dose not given, added: pembrolizumab | patients with adverse event | 21% |
| Cc1cc(NC2CCN(C(=O)OC3CCN(C(=O)/C=C/CN(C)C)C3)CC2)n2ncc(C(C)C)c2n1 (stereo not drawn) | Phase I dose escalation CTCAE v4.0, measured: maculo-papular rash | patients with advanced solid tumours | dose not given, TIW dosing grade 3 or higher | patients with adverse event | 0% |
| NC(=O)N1c2ccccc2C=Cc2ccccc21 |  | male patients | oral, dose not given, on-treatment adverse events | patients with Toothache | 7% |
| C=CC(=O)Nc1cc(Nc2nccc(-c3cn(C)c4ccccc34)n2)c(OC)cc1N(C)CCN(C)C | measured: treatment-related grade ≥3 Neutropenia | EGFR-mutant MET-altered NSCLC | oral, dose not given, all | patients with adverse events | 3% |
| C[C@@H](Nc1cc(F)cc(F)c1)c1cc(C(=O)N(C)C)cc2c(=O)cc(N3CCOCC3)oc12 | measured: Nausea | advanced solid tumour patients | oral, dose not given, dose finding | patients discontinuing for AE | 1.6% |
| C[C@@H](c1ccc2nccn2c1)n1nnc2ncc(-c3cnn(C)c3)nc21 | measured: Fatigue grade ≥3 | EGFR-mutant MET-altered NSCLC | oral, study | patients with treatment-related AEs | 0% |
| CNC(=O)c1ccc(-c2cnc3ncc(Cc4ccc5ncccc5c4)n3n2)cc1F | measured: Pruritus, all grades | cancer patients | oral, 600 mg twice daily, other expansion cohort, any causality | patients with adverse event | 0% |

A few entries again:
| SMILES | test | system | conditions | quantity | result |
| --- | --- | --- | --- | --- | --- |
| COc1cc(Nc2ncc3c(n2)-c2ccc(Cl)cc2C(c2c(F)cccc2OC)=NC3)ccc1C(=O)O | measured: Alopecia, all grades | cancer patients, phase 1/2 | oral, dose not given, added: pembrolizumab | patients with adverse event | 21% |
